# Measurements from different studies.
# A part holds a random share of what one study measured.
# UniProt Q96GD4, sequence (whole entry, looked up): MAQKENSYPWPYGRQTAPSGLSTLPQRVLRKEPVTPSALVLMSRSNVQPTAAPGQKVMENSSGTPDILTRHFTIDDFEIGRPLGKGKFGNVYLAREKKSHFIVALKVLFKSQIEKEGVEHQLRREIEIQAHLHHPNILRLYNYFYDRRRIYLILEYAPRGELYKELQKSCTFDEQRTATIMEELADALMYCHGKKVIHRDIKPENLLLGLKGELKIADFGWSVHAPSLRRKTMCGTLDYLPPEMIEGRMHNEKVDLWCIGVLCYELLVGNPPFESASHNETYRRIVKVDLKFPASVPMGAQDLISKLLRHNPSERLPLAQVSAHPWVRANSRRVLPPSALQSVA
# UniProt Q14289, sequence (whole entry, looked up): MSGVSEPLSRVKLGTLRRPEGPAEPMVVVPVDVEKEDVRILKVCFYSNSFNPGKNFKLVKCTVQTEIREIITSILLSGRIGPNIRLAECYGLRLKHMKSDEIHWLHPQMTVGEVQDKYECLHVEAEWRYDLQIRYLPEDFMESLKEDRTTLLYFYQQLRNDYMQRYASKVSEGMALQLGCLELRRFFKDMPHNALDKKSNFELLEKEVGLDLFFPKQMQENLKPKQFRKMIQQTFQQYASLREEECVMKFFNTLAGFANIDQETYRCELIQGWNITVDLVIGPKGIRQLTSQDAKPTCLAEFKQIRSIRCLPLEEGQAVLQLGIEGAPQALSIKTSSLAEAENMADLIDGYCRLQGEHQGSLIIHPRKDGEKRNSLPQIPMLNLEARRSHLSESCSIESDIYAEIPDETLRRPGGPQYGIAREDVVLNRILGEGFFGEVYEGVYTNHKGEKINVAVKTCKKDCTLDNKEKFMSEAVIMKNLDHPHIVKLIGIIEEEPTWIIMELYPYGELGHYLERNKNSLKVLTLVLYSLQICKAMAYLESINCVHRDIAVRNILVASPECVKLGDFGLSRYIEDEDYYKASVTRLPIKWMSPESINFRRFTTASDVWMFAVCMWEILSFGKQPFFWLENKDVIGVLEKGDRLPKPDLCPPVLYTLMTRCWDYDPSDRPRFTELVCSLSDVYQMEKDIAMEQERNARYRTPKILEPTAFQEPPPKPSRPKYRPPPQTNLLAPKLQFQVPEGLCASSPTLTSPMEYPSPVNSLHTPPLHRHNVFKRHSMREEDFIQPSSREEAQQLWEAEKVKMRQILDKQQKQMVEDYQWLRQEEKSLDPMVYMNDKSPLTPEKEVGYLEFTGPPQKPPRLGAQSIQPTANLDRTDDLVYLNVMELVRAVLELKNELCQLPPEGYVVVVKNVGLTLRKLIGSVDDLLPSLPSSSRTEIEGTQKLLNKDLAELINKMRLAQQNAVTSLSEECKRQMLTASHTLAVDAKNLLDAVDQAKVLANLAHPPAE
# UniProt P07948, sequence (whole entry, looked up): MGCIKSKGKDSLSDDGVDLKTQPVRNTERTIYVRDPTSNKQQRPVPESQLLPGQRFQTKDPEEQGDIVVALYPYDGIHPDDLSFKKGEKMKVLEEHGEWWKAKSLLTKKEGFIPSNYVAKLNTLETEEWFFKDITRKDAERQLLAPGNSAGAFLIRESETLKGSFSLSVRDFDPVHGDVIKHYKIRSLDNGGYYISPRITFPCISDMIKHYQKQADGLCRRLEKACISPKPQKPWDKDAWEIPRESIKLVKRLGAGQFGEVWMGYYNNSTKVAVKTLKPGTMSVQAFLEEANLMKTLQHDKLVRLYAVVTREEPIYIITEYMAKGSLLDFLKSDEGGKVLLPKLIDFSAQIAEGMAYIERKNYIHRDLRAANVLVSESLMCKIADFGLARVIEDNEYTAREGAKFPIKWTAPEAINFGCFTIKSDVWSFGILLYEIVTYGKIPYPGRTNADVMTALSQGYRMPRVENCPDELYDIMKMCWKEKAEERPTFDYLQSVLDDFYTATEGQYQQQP
# UniProt P10721, sequence (whole entry, unmodified, looked up): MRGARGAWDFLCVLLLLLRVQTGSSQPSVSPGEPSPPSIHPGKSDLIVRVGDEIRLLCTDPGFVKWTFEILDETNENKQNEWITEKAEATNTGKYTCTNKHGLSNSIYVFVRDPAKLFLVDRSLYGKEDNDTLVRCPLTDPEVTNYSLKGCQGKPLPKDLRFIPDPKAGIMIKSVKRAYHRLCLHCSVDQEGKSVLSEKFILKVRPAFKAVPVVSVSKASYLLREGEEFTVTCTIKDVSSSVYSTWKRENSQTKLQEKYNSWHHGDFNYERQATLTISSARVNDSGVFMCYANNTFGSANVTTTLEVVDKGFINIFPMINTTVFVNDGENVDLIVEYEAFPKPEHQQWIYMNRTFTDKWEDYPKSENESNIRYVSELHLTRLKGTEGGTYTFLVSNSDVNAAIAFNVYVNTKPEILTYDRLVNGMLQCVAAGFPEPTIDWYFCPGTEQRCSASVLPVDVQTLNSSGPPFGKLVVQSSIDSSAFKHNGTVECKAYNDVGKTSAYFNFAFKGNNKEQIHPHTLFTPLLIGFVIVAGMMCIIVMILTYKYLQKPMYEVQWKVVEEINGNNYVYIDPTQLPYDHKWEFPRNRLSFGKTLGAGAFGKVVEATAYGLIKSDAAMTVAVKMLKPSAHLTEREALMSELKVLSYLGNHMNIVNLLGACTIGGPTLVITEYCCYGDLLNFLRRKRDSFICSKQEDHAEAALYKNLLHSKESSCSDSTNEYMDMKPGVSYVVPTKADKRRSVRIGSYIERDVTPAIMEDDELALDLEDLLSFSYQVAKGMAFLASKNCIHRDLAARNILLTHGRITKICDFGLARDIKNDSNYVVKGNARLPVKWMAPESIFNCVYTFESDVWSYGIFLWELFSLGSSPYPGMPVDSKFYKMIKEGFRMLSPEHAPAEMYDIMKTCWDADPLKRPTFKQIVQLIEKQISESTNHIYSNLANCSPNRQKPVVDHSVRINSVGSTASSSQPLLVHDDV
# UniProt P31749, sequence (whole entry, looked up): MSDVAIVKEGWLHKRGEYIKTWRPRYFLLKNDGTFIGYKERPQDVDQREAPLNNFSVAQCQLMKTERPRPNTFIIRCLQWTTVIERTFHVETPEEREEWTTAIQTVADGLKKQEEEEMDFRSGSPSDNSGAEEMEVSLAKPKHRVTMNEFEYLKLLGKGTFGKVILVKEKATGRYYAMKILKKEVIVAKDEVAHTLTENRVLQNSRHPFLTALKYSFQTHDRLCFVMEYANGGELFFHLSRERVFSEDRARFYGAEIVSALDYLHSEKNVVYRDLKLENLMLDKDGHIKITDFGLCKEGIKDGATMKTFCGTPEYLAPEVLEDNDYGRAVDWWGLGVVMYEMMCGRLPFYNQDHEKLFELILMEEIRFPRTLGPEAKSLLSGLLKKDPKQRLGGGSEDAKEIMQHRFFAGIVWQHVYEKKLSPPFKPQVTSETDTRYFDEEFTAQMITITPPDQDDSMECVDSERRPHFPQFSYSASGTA
# UniProt P49137, sequence (whole entry, looked up): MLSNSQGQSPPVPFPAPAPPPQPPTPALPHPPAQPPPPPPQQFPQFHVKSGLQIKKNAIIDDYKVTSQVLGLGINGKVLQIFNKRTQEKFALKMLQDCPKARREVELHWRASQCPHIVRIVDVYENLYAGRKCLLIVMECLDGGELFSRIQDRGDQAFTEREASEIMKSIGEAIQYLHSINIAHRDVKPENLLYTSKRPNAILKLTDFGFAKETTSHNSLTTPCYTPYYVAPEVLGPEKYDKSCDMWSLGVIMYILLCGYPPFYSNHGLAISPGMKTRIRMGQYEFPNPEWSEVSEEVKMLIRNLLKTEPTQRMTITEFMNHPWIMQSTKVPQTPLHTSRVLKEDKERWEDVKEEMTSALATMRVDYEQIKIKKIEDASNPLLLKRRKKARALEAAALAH

# Study 1
# Target: POU domain, class 6, transcription factor 1, POU and homeodomain (POU6F1, Homo sapiens, UniProt Q14863, residues 311-611)
# Method: protein-binding microarray
# Molecule type: hairpin DNA
# Medium: in vitro
# Tested at: not given
# Setting: whole hairpin DNA, median over replicate spots
# Reference: not given
# Direction: higher = stronger binding
# Shared flanks, not repeated: GAGGCC … GGCCTCACACTCTT
# Target sequence (chain): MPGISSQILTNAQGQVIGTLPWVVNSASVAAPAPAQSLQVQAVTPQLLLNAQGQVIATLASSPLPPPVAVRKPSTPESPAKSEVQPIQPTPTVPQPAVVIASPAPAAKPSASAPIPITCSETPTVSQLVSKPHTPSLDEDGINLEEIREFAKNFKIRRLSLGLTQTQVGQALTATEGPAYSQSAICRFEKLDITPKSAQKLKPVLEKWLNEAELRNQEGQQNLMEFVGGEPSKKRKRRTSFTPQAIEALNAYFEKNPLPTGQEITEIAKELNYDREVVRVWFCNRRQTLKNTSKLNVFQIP
Oligonucleotide,median fluorescence [a.u.]
ATAATTCGGTGCCTCCTGGCACCGAATTAT (5mC at 13 29),548
ATAATTACGTGCCTCCTGGCACGTAATTAT (5mC at 14 28),1020
GTAATTAGGTGCCTCCTGGCACCTAATTAC (5mC at 36),923
ACGATGAGGTGCCTCCTGGCACCTCATCGT (5mC at 8),336
GTAATGAGGTGCCTCCTGGCACCTCATTAC,1460
ATGATTAGGTGCCTCCTGGCACCTAATCAT,482
CGAATGAGGTGCCTCCTGGCACCTCATTCG (5mC at 35),380
ATACGTAGGTGCCTCCTGGCACCTACGTAT (5mC at 10),346

# Study 2
# Compound: O=C(N[C@H]1CCCCC/C=C\C2C[C@@]2(C(=O)O)NC(=O)[C@@H]2C[C@@H](Oc3ccncc3)CN2C1=O)OC1CCCC1 (some centres unmarked)
# Method: competition with immobilised ligand
# Tested at: 1 µM
target,assay,remaining binding [%]
"Mast/stem cell growth factor receptor Kit (KIT, Homo sapiens, UniProt P10721, T670I/V559D)",binding,100
"Tyrosine-protein kinase ABL1, phosphorylated (ABL1, Homo sapiens, UniProt P00519, H396P)",binding,71
"Tyrosine-protein kinase Lyn (LYN, Homo sapiens, UniProt P07948)",binding,87
"Phosphatidylinositol 4,5-bisphosphate 3-kinase catalytic subunit alpha isoform (PIK3CA, Homo sapiens, UniProt P42336, E545A)",binding,100
"RAC-alpha serine/threonine-protein kinase (AKT1, Homo sapiens, UniProt P31749)",binding,100
"Epithelial discoidin domain-containing receptor 1 (DDR1, Homo sapiens, UniProt Q08345)",cell-free assay,100
"Ribosomal protein S6 kinase alpha-6, C-terminal kinase domain (RPS6KA6, Homo sapiens, UniProt Q9UK32)",binding,86
"Protein-tyrosine kinase 2-beta (PTK2B, Homo sapiens, UniProt Q14289)",binding,100
"Mitogen-activated protein kinase kinase kinase 14 (MAP3K14, Homo sapiens, UniProt Q99558)",binding,100
"Serine/threonine-protein kinase TAO1 (TAOK1, Homo sapiens, UniProt Q7L7X3)",binding,100
"Fibroblast growth factor receptor 2 (FGFR2, Homo sapiens, UniProt P21802)",cell-free assay,79
"Aurora kinase B (AURKB, Homo sapiens, UniProt Q96GD4)",binding,89
"MAP kinase-activated protein kinase 2 (MAPKAPK2, Homo sapiens, UniProt P49137)",binding,89
"Receptor tyrosine-protein kinase erbB-3 (ERBB3, Homo sapiens, UniProt P21860)",binding,84

# Study 3
# Target: Sal-like protein 4, full length isoform A (SALL4, Homo sapiens, UniProt Q9UJQ4, residues 1-1053)
# UniProt Q9UJQ4, sequence (whole entry, looked up): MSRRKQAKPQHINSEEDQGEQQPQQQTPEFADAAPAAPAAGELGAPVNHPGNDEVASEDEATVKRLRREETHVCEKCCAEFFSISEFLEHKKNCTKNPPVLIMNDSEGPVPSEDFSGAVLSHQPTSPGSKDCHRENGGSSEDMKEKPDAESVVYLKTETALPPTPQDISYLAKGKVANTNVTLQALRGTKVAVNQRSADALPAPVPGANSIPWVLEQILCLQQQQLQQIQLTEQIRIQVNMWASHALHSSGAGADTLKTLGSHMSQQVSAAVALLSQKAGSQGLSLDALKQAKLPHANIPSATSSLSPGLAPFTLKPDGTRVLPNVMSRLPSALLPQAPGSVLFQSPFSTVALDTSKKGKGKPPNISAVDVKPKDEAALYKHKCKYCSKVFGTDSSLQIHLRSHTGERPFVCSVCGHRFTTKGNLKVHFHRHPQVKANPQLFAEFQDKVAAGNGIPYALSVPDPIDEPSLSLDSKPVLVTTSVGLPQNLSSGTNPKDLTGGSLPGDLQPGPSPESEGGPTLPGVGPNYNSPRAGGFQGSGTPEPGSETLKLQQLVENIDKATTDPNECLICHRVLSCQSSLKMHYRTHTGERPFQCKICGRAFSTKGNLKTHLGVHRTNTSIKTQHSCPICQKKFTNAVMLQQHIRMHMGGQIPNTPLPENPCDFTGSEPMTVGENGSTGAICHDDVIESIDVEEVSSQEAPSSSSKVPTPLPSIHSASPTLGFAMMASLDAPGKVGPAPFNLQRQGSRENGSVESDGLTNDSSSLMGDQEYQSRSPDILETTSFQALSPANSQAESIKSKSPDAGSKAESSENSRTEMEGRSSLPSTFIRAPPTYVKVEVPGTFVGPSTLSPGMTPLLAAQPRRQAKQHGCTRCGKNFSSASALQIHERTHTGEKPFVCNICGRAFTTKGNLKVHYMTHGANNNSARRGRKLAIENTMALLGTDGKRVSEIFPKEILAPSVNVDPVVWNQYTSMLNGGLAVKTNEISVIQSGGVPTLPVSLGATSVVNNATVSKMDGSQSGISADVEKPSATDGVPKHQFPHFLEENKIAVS
# Method: universal PBM
# Molecule type: double-stranded DNA, one strand shown
# Medium: in vitro
# Tested at: 600 nM
# Setting: 8-mer, flanks averaged, mean of replicates
# Direction: higher = stronger binding
Oligonucleotide,E-score
GTCCTACA,8.5e-05
GGAAGTCA,-0.0698
ATTTAAGA,0.177
CGGCTCCC,-0.402
GAAGGCAC,-0.172
AATGGGAG,-0.034
ATACCCGA,-0.0511
GAAAAATA,0.371

# Single results of other studies
Compound,assay,system,conditions,endpoint,result
CC(C)n1cnc(-c2ccc(F)cc2)c1-c1ncc(C(=O)Nc2ccc(N3CCN(C)CC3)cc2)[nH]1,phase 2a trial,idiopathic pulmonary fibrosis patients,"oral, 60 mg once daily, disc protrusion, grade 5",patients with TEAE,0%
N=c1n(CCN2CCCCC2)c2ccccc2n1CC(O)COc1ccccc1 (centres unmarked),,"human, microsomes or S9","2 µM, 0.5 h",remaining compound,7.14%

# Repeated from above (study 1):
Oligonucleotide,median fluorescence [a.u.]
CGAATGAGGTGCCTCCTGGCACCTCATTCG (5mC at 35),380
ATACGTAGGTGCCTCCTGGCACCTACGTAT (5mC at 10),346
ACGATGAGGTGCCTCCTGGCACCTCATCGT (5mC at 8),336
GTAATTAGGTGCCTCCTGGCACCTAATTAC (5mC at 36),923
